Assay results gathered from unrelated publications.
Each line is one published result; not all experiments were run side by side. ± marks the error that the study gave.

Structure (SMILES)	test system	setting	Cmax
O=C1CC[C@H](N2Cc3cc(N4CCN(CC5CCN(c6ccc([C@@H]7c8ccc(O)cc8CC[C@@H]7c7ccccc7)cc6)CC5)CC4)ccc3C2=O)C(=O)N1	human, plasma	oral, 200 mg, with: rosuvastatin 10 mg	474 ng/mL
COc1nnc2ccc(N3CCC(c4ccc(OCCN5CCN(C)C(=O)[C@H]5C)cc4)CC3)nn12	human, plasma	oral, 2 mg once daily, single dose, monotherapy	34.5 nM
CC(C)(C#N)c1cc(Cn2cncn2)cc(C(C)(C)C#N)c1	human	150 mg	14.4 ng/mL
Cc1ccc(C(=O)N(CCCN)C(c2nc3snc(C)c3c(=O)n2Cc2ccccc2)C(C)C)cc1 (centres unmarked)	human	intravenous, all doses pooled, course day 3 following induction, geometric mean	71.2 ng/mL
O=C(O)C[C@H](O)C[C@H](O)/C=C/c1c(C2CC2)nc2ccccc2c1-c1ccc(F)cc1	OATP1B1/1B3 humanized mouse, plasma	oral, 5 mg/kg, with: rifampin 20 mg/kg oral	751 nM
Cc1ccc(C)c(OCCCC(C)(C)C(=O)O)c1	human, plasma	oral, 600 mg single, before lopinavir/ritonavir, geometric mean	28000 ng/mL
C=CC(=O)N(C)CCOc1c(N)ncnc1-c1cc(F)cc(NC(=O)c2ccc(C3CC3)cc2F)c1C	human, whole blood	oral, 60 mg, single ascending dose, fasted	138 ng/mL
COc1ccc2[nH]c([S@+]([O-])Cc3ncc(C)c(OC)c3C)nc2c1	human male, dried plasma spots	oral, 5 mg racemic omeprazole, with: rifampicin pretreatment	8 nM
N#C[C@H](C[C@@H]1CCCNC1=O)NC(=O)[C@H](CC1CC1)NC(=O)c1cc2cccc(Cl)c2[nH]1	human, plasma	700 mg twice daily, day 5	3780 ng/mL
Cc1[nH]c(/C=C2\C(=O)Nc3ccc(F)cc32)c(C)c1C(=O)N[C@H]1CCN(C(=O)N(C)C)C1	human, plasma	oral, 100 mg, cycle 1 day 1, single dosing, with: everolimus 5 mg	417 ± 134 ng/mL
C[C@H](CCC(=O)NCC(=O)O)[C@H]1CC[C@H]2[C@@H]3[C@H](O)C[C@@H]4C[C@H](O)CC[C@]4(C)[C@H]3C[C@H](O)[C@]12C	human, plasma	concentration not given, endogenous baseline diurnal	188 ± 32 nM
Cn1cnc2c(F)c(Nc3ccc(Br)cc3Cl)c(C(=O)NOCCO)cc21	human ESRD on haemodialysis	oral, 50 mg, before dialysis	507 ng/mL
Cc1cc(Nc2cc3ncccc3c(N[C@@H]3C[C@H]4CC[C@@H](C3)N4CCC#N)n2)n[nH]1	human, plasma	270 mg, day 1, geometric mean	14.4 ng/mL
COc1ccnc(C[S+]([O-])c2nc3ccc(OC(F)F)cc3[nH]2)c1OC (centres unmarked)	human, plasma	intravenous, dose not given, median	3700 ng/mL
Nc1ncn([C@@H]2O[C@H](CO)[C@@H](O)[C@H]2O)c(=O)n1	human	intravenous, 100 mg/m^2, cycle 1 day 1, given alone	1800 ng/mL
COc1cc(Nc2c(C#N)cnc3cc(OCCCN4CCN(C)CC4)c(OC)cc23)c(Cl)cc1Cl	human, mild hepatic impairment (NCI), plasma	single dose, geometric mean, total drug	66.8 ng/mL
CC(C)(Sc1ccncc1-c1ccc(C#N)c2ccccc12)C(=O)O	human, plasma	oral, 15 mg once daily, with: febuxostat 0 mg	52.7 ng/mL
CC(C)NC(=O)COc1cccc(-c2nc(Nc3ccc4[nH]ncc4c3)c3ccccc3n2)c1	human, male, fed, plasma	oral, 200 mg, day 3, geometric mean	2130 ng/mL
COC[C@@H](c1ccc(C(F)(F)F)cc1)N1CCN(C2(C)CCN(C(=O)c3c(C)ncnc3C)CC2)C[C@@H]1C	human	oral, 10 mg once daily, steady state, population PK, with: ritonavir	69 ng/mL
Cc1cc(-c2nnc(N)nc2-c2ccc(F)cc2)cc(Cl)n1	human patients, plasma	oral, 200 mg capsule once daily, multiple doses, arithmetic mean	1110 ng/mL

Excerpt of the above:
Structure (SMILES)	test system	setting	Cmax
O=C(O)C[C@H](O)C[C@H](O)/C=C/c1c(C2CC2)nc2ccccc2c1-c1ccc(F)cc1	OATP1B1/1B3 humanized mouse, plasma	oral, 5 mg/kg, with: rifampin 20 mg/kg oral	751 nM
COc1nnc2ccc(N3CCC(c4ccc(OCCN5CCN(C)C(=O)[C@H]5C)cc4)CC3)nn12	human, plasma	oral, 2 mg once daily, single dose, monotherapy	34.5 nM
